# Published values collected from several papers.
# Each line is one published result; not all experiments were run side by side. “And” joins repeats or separate records; there may be more than shown. ± marks the error that the study gave.
# CSNK1D: Casein kinase I isoform delta (CSNK1D, Homo sapiens, UniProt P48730)
# Chain of UniProt P48730 (whole entry, looked up): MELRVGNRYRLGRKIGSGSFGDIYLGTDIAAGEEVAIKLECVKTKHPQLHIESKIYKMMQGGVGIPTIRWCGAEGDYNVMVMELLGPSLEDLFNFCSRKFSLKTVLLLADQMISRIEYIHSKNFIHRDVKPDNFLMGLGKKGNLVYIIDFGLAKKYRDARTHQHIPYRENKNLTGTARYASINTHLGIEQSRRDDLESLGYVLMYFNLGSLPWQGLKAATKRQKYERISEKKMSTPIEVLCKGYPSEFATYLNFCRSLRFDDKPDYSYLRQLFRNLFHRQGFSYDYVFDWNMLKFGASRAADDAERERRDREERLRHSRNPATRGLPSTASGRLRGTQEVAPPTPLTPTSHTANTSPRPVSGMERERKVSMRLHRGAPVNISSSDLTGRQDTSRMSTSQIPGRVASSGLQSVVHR
# IDE: Insulin-degrading enzyme (IDE, Homo sapiens, UniProt P14735)
# BRD9: Bromodomain-containing protein 9 (BRD9, Homo sapiens, UniProt Q9H8M2)
# Chain of UniProt Q9H8M2 (whole entry, looked up): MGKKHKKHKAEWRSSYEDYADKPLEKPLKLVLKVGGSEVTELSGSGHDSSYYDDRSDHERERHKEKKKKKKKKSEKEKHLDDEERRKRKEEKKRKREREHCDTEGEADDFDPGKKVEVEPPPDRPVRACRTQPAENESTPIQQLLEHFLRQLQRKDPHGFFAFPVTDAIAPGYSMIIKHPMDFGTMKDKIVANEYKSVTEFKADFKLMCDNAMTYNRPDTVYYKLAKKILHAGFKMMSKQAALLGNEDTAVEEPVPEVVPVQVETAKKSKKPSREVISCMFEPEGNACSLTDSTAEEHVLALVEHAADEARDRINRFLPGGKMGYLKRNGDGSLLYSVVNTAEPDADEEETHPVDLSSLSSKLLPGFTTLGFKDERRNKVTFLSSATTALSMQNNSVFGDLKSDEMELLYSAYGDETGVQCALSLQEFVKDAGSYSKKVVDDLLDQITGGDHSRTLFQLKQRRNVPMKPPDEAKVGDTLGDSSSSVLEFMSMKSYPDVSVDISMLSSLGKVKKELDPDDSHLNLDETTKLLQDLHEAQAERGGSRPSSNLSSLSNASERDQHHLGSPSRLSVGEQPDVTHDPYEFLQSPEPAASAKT
# CD274: Programmed cell death 1 ligand 1 (CD274, Homo sapiens, UniProt Q9NZQ7)
# Chain of UniProt Q9NZQ7 (whole entry, looked up): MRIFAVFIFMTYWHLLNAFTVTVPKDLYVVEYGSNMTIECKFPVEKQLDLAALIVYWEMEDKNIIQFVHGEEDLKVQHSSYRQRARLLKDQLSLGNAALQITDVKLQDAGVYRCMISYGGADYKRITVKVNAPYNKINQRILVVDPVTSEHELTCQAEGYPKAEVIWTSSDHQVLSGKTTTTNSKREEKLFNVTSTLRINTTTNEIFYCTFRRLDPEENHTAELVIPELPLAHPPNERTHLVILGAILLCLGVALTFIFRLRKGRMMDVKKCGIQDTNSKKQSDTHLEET
# MAP3K1: Mitogen-activated protein kinase kinase kinase 1 (MAP3K1, Homo sapiens, UniProt Q13233)
# Protein AF-9 with DOT1L: Protein AF-9, with DOT1L (Homo sapiens, UniProt P42568)
# Chain of UniProt P42568 (whole entry, looked up): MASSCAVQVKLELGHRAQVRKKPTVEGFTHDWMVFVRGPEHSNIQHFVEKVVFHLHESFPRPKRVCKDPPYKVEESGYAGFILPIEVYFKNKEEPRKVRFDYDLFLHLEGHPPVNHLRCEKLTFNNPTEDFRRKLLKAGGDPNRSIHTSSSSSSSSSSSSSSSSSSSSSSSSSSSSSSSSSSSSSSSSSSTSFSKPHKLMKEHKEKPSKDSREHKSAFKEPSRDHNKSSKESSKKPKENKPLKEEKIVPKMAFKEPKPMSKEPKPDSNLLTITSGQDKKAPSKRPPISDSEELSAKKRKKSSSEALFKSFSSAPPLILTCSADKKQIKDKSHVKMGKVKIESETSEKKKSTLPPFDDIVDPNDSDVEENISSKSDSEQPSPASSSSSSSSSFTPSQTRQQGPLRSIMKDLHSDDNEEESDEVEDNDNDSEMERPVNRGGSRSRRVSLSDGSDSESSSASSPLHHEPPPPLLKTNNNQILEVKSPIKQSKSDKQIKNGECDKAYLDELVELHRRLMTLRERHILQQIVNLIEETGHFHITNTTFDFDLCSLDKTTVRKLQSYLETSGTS
# FPR1: fMet-Leu-Phe receptor (FPR1, Homo sapiens, UniProt P21462)
# Chain of UniProt P21462 (whole entry, looked up): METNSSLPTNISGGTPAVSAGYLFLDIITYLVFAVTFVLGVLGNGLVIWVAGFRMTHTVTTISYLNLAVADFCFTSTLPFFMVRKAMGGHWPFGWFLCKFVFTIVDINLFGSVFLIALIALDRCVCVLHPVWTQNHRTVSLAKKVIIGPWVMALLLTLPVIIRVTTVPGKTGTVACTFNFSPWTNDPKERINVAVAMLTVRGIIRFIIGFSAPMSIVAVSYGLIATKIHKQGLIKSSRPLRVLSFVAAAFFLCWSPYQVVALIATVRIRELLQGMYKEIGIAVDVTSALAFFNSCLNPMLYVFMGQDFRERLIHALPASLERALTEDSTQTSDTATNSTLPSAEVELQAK
# AR: Androgen receptor (AR, Homo sapiens, UniProt P10275)
# Chain of UniProt P10275 (whole entry, looked up): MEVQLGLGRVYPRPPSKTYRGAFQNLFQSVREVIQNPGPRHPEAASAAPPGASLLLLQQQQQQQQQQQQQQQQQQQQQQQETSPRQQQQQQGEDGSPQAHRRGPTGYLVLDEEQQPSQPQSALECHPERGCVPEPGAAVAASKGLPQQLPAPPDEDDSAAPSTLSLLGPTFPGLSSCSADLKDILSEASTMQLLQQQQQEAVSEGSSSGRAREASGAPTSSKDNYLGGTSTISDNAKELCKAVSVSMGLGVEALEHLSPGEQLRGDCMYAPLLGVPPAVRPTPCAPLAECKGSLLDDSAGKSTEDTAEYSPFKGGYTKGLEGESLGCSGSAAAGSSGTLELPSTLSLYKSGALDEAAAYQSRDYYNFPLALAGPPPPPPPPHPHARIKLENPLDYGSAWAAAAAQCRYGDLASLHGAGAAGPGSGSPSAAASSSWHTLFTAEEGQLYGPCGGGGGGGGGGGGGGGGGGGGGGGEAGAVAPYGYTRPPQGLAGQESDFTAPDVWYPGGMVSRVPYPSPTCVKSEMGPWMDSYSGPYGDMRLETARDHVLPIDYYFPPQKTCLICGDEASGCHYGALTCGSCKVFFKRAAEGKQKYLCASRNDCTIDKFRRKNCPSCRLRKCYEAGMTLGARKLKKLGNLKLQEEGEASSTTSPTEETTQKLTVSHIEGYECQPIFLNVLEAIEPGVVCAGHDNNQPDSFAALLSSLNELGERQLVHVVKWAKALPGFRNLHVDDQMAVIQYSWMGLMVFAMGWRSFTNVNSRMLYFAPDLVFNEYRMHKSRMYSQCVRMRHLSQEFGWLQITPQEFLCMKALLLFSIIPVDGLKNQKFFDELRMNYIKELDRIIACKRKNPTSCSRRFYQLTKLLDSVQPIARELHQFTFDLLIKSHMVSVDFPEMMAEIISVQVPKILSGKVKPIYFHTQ
# A-type voltage-gated potassium channel KCND2: A-type voltage-gated potassium channel KCND2 (Rattus norvegicus, UniProt Q63881)
# Chain of UniProt Q8IWT6 (whole entry, unmodified, looked up): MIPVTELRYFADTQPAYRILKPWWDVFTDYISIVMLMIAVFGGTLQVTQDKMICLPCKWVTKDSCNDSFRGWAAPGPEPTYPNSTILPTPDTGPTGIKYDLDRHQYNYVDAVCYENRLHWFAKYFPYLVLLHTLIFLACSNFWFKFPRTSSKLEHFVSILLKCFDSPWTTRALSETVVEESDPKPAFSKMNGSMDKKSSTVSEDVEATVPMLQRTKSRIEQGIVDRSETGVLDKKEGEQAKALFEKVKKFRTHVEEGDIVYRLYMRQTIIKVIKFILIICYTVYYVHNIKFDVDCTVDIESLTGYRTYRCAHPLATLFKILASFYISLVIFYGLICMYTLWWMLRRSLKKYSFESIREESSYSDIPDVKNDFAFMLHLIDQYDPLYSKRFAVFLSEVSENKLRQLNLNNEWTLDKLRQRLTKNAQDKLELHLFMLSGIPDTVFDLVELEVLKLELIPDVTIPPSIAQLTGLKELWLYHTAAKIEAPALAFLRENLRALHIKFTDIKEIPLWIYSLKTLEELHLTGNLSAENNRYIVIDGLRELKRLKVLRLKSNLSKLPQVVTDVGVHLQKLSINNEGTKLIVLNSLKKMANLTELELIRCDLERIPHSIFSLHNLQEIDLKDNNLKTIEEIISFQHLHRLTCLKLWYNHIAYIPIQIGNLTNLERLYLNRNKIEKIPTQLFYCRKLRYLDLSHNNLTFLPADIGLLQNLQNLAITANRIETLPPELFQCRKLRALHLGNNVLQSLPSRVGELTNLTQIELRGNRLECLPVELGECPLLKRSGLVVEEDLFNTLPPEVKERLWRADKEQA
# Chain of UniProt Q63881 (whole entry, looked up): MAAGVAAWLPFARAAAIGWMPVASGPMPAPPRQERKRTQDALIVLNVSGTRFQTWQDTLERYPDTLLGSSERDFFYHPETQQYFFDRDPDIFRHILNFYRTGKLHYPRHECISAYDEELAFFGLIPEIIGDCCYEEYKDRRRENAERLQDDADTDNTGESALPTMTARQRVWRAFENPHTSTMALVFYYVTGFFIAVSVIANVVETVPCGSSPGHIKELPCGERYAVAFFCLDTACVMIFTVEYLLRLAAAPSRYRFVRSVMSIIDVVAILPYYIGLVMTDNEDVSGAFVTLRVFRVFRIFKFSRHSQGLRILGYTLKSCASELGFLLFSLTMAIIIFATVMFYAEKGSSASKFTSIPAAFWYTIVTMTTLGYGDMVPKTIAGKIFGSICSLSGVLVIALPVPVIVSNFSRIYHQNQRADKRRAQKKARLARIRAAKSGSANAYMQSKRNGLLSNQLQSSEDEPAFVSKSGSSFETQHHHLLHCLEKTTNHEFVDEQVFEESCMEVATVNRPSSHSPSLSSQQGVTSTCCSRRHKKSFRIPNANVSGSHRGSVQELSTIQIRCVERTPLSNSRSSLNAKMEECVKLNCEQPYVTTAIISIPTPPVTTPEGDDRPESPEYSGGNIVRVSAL
# Chain of UniProt Q0VDG4 (whole entry, looked up): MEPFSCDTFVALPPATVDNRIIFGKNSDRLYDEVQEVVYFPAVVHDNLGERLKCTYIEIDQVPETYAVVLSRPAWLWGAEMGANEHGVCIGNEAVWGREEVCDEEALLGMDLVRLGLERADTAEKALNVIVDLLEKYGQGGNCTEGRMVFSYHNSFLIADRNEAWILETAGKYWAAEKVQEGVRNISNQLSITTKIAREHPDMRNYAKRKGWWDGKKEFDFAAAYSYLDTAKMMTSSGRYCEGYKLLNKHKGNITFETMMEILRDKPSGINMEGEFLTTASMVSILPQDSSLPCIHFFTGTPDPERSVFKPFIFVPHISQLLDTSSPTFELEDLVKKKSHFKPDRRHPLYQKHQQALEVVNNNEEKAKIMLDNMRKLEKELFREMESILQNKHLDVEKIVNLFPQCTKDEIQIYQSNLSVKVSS
Structure (SMILES),tested on,assay,test system,setting,measurement,value
Fc1ccc(-c2ncn(C3=CCCCC3)c2-c2ccncc2)cc1,CSNK1D,inhibitor,,1 µM,inhibition,28%
Cc1ccc(S(=O)(=O)N[C@@H](CC(=O)NC(C)(C)C)C(=O)NCc2ccccc2)cc1,"Proteasome component C5/PSMB5 (Homo sapiens, UniProt P20618+P28074)",β5c proteasome activity,,100 µM,inhibition,≤ 50%
CC(=O)N1CCCCN2[C@H](CO)[C@@H](c3ccc(-c4cccc(C)c4)cc3)[C@@H]2C1,IDE,"enzyme activity, inhibitor, fluorogenic kinetic",,with: Mca-RPPGFSAFK(Dnp)-OH substrate,EC50,16.5 µM
COc1ccc(OC)c(-c2cc(C(C)=O)n3ccccc23)n1,BRD9,AlphaScreen,,1 µM,inhibition,79.2%
COc1ccc(C(=O)/C=C/c2cccc(-c3cccc(-c4ccc(CNCC(C)(C)C(N)=O)c(OC)n4)c3C)c2)cc1,CD274,"binding, inhibitor, HTRF",,1 µM,inhibition,7 ± 1.7%
CC/C(=N\NC(=O)NCc1cccc(O)c1)c1ccc(O)c(C)c1O,MAP3K1,kinase activity,,0.1 µM,inhibition,1.9%
Fc1ccc(Nc2ccc3ncc(OCC4CCNCC4)nc3c2)cc1F,Protein AF-9 with DOT1L,"DOT1L binding, AlphaLISA",,10 µM,inhibition,19 to 40%
COc1ccc(C(=O)/C=C/c2cccc(-c3cccc(-c4ccc(CNC5CCC(=O)NC5=O)c(OC)n4)c3C)c2)cc1 (centres unmarked),CD274,"binding, inhibitor, HTRF",,1 µM,inhibition,13.5 ± 2.1%
COc1ccccc1-c1cc(C(C)=O)n2ccccc12,BRD9,AlphaScreen,,1 µM,inhibition,61.2%
COc1cc(C(=O)NS(=O)(=O)c2ccccc2C)ccc1Cc1cn(C)c2ccc(NC(=O)OC3CCCC3)cc12,"Volume-regulated anion channel subunit LRRC8C, part LRRC8A IL1 chimera (LRRC8C, Homo sapiens, UniProt Q8TDW0, M48D)","ion current, inhibitor, whole-cell patch clamp",HCT LRRC8-/- cells,"3 µM, constitutively open channel, +100 mV",inhibition,15.4% and 7.6% and 16.6% and 20% and 23.5% and 2.13%
O=C(NC1CCNCC1)c1ccc2nc(-c3ccc(Br)cc3)c(-c3ccc(Br)cc3)nc2c1,Protein AF-9 with DOT1L,"DOT1L binding, AlphaLISA",,10 µM,inhibition,33%
CCc1oc2ccccc2c1C(=O)c1cc(Br)c(O)c(Br)c1,"SLC22A12 (Homo sapiens, UniProt Q96S37, H245A)",uric acid uptake,HEK293T transfected with SLC22A12 H245A,"0.5 µM, 10 min, 37 °C, mean, with: [14C]urate 200 µM",inhibition,69.3%
N#CCc1ccc(-c2ccc3ncc(OCC4CCNCC4)nc3c2)cc1,Protein AF-9 with DOT1L,"DOT1L binding, AlphaLISA",,10 µM,inhibition,9 to 18%
COc1cc(-c2cc(C(C)=O)n3ccccc23)cc(OC)c1CN(C)C,BRD9,AlphaScreen,,1 µM,inhibition,95.7%
COc1cc2nccc(Oc3ccc(NC(=O)c4cc5c(n(-c6ccccc6)c4=O)CCCC5=O)nc3)c2cc1OC,"AXL (Homo sapiens, UniProt P30530)",plasma inhibitory activity,human patients,3 mg/day,inhibition,70 to 100%
Cc1cccc(-c2nc(-c3ccc(NS(C)(=O)=O)cc3)[nH]c2-c2ccncc2)c1,CSNK1D,kinase activity,,1 µM,inhibition,13%
CC[C@]12CCCN3CCc4c([nH]c5ccccc45)[C@]31N(Cc1cn(Cc3ccccc3)nn1)C(=O)C2,FPR1,"beta-arrestin recruitment, antagonist, PathHunter chemiluminescence",,"20 µM, with: agonist at EC80",inhibition,6%
COc1nc(-c2cccc(-c3ccccc3)c2C)ccc1CNCCCCCCCCCCC(=O)N(C)CCCC12CCC(c3ccccc31)c1ccccc12,CD274,"binding, inhibitor, HTRF",,1 µM,inhibition,36.2 ± 1.3%
Cc1ccc(-c2ccc3ncc(OCC4CCNCC4)nc3c2)cc1,Protein AF-9 with DOT1L,"DOT1L binding, AlphaLISA",,10 µM,inhibition,9 to 18%
NCc1ccccc1,"Secernin-3 (Homo sapiens, UniProt Q0VDG4)","probe labelling, inhibitor, competitive ABPP",HEK-293T cell lysate,up to 300 µM,inhibition,no inhibition
CCS(=O)(=O)c1nc(S(=O)(=O)c2ccccc2Cl)c(N2CCN(C)C(=O)[C@H]2C)s1,"ADRA1B (Homo sapiens, UniProt P35368)",,,10 µM,inhibition,5.06%
[2H]c1cc(C)c(NC(=O)c2cnc(Nc3cc(N4CCCCC4)nc(C)n3)s2)c(Cl)c1,"RET (Homo sapiens, UniProt P07949, S891A)",,,0.01 µM,inhibition,< 30%
CCNNC(=O)c1ccc(CN(CC(=O)NCc2ccccc2)C(=O)c2ccc(N(C)C)cc2)cc1,"MMP1 (Homo sapiens, UniProt P03956)",enzyme activity,,10 µM,inhibition,no inhibition
COc1cc(-c2cc(C(C)=O)n3ccccc23)cc(OC)c1C(=O)N(C)C,BRD9,AlphaScreen,,1 µM,inhibition,95.6%
COc1ccc(C(=O)/C=C/c2cccc(-c3cccc(-c4ccc(CNC[C@@H]5CCC(=O)N5)c(OC)n4)c3C)c2)cc1,CD274,"binding, inhibitor, HTRF",,1 µM,inhibition,10.8 ± 1.2%
NC/C(=C\F)COc1cccc(Cn2c(=S)[nH]c(=O)c3[nH]cnc32)c1,AR,"radioligand binding, measured: testosterone binding",,10 µM,inhibition,< 50%
Cc1ccc(C(=O)Nc2ccc3ccccc3c2)o1,A-type voltage-gated potassium channel KCND2,"ion current, whole-cell patch-clamp",,"10 µM, rKv4.2",inhibition,7.12%
O=c1oc(-c2ccco2)nc2ccccc12,"Plasma kallikrein (KLKB1, Homo sapiens, UniProt P03952)",chromogenic substrate hydrolysis,,up to 50 µM,inhibition,no inhibition
O=C(Nc1ccc(OCc2ccccc2)cc1)Nc1ccc2ncc(OCC3CCNCC3)nc2c1,Protein AF-9 with DOT1L,"DOT1L binding, AlphaLISA",,10 µM,inhibition,42%
Cn1cc(-c2cnc3ccc(NC(=O)Nc4ccc(F)c(Br)c4)cc3n2)cn1,MAP3K1,"kinase binding, KiNativ profiling, measured: Lys2 peptide",PANC-1 lysate,7.5 µM,inhibition,58.5%
CCN(CC)c1ccc(Nc2ccc3ncc(OCC4CCNCC4)nc3c2)cc1,Protein AF-9 with DOT1L,"DOT1L binding, AlphaLISA",,10 µM,inhibition,71%
CNC(=O)c1cc(OC)c(-c2cc(C(C)=O)n3ccccc23)cc1OC,BRD9,AlphaScreen,,1 µM,inhibition,94.6%
Cc1ccccc1-c1ccc([C@H]2[C@H](CO)N3CCCCN(CC4CC4)C[C@@H]23)cc1,IDE,"enzyme activity, inhibitor, fluorogenic kinetic",,with: Mca-RPPGFSAFK(Dnp)-OH substrate,EC50,30 µM
CC(=O)c1cc(-c2ccccc2Cl)c2ccccn12,BRD9,AlphaScreen,,1 µM,inhibition,13%
CC(C)c1noc2ncc(C(=O)c3ccccc3O)cc12,A-type voltage-gated potassium channel KCND2,"ion current, whole-cell patch-clamp",,"10 µM, rKv4.2",inhibition,14.3%
CCC(C)(C)C1CCc2[nH]c3ccccc3c(=O)c2C1 (centres unmarked),Plasmodium yoelii,,17XL,384-well,IC50,0.341 ± 0.028 µM
CCCCCCCCCCCCNC(=S)NCCCC[C@H](NC(=O)OCc1ccccc1)C(=O)N[C@@H](Cc1c[nH]c2ccccc12)C(=O)N[C@@H](CC(N)=O)C(N)=O,"SIRT3 (Homo sapiens, UniProt Q9NTG7)","enzyme activity, inhibitor",,10 µM,inhibition,< 5%
Fc1ccc(Nc2ccc3ncc(OCC4CCNCC4)nc3c2)cc1,Protein AF-9 with DOT1L,"DOT1L binding, AlphaLISA",,10 µM,inhibition,19 to 40%
CCN(Cc1ccccc1C(F)(F)F)C(=O)C1CCN(S(=O)(=O)c2ccc3[nH]ncc3c2)CC1,rat rolipram binding site,radioligand binding,,"10 µM, with: rolipram",inhibition,4%
CN1CCN(c2cc(-c3ccncc3)c(-c3ccc4ccccc4c3)nn2)CC1,FPR1,"antagonist, FLIPR",,10 µM,inhibition,-0.5%
CC[C@@H]1[C@H](F)C(=O)N[C@@H]1COc1nccc2cc(C(N)=O)c(OC)cc12,"PI4KB (Homo sapiens, UniProt Q9UBF8)","ATP-site probe binding, ActivX profiling",THP-1 cell lysate,0.04 mM,inhibition,-0.342%
CN(C(=O)n1cnc(-c2ccc[n+]([O-])c2)c1)C1CCCCC1,AR,,,10 µM,inhibition,17.3%
Cc1cccc(-c2nc(CN(C)C)[nH]c2-c2ccncc2)c1,CSNK1D,kinase activity,,1 µM,inhibition,3%
O=C(Nc1cccc2c(=O)cc(-c3nnn[nH]3)oc12)c1ccc(OCCCCc2ccccc2)cc1,"LRRC8A/LRRC8C (Homo sapiens, UniProt Q8IWT6+Q8TDW0, M48D/T48D)","ion current, whole-cell patch clamp",HCT LRRC8-/- cells,"3 µM, +100 mV, T48D/M48D heteromers",inhibition,7.38% and -2.61% and 3.61%
CCN(CC)Cc1c(OC)cc(-c2cc(C(C)=O)n3ccccc23)cc1OC,BRD9,AlphaScreen,,1 µM,inhibition,95.4%
CCCCCCCc1c(C)[nH]c2cc(OC)ccc2c1=O,Plasmodium yoelii,,17XL,384-well,IC50,0.057 ± 0.001 µM
C=CCOc1ccc(/C=C/C(=O)OCC(=O)Nc2cc(C(=O)OC)ccc2C(=O)OC)cc1,"uncharacterized protein (Erigeron canadensis, UniProt A0A8M0FGR5)",enzyme activity,,100 mg/L,inhibition,> 30%
